Published values from different studies.
Each numbered part is a random draw from the data of one study; scales do not carry over between parts.

Series 1
Target: Sal-like protein 4, full length isoform B (SALL4, Homo sapiens, UniProt Q9UJQ4-2, residues 1-616)
Method: universal PBM
Form: double-stranded DNA, one strand shown
Sample: in vitro
Tested at: not given
Notes: 8-mer, flanks averaged, mean of replicates
Direction: higher = stronger binding
Target sequence (chain): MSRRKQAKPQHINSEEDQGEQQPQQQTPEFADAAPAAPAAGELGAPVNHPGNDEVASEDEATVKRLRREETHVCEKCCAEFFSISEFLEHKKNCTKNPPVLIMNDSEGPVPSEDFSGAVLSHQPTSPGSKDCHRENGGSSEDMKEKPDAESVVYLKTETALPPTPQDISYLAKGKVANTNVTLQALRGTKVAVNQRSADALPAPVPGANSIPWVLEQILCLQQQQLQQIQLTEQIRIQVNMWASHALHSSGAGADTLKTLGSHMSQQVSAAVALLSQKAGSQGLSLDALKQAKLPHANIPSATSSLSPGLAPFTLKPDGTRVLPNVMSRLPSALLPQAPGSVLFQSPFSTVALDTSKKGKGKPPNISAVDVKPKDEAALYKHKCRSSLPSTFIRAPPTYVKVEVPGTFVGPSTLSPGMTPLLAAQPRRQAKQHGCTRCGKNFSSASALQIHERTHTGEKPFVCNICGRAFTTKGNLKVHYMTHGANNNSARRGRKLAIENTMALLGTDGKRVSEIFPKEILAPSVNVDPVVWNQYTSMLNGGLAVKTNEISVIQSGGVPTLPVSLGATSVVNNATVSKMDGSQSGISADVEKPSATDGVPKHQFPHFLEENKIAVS
Oligonucleotide | E-score
CGATAACC | 0.0434
AGTCAAAG | 0.00017
AGTCATGA | 0.0981
AGTGATAA | 0.254
CACGAACA | 0.128
TACTATCA | 0.133
AGAAACGC | -0.115
GCAAATGA | 0.0664

Series 2
Target: Interferon regulatory factor 7, full length, phosphomimetic (IRF7, Homo sapiens, UniProt Q92985, residues 1-503, S471D/S472D/S475D/S476D/S477D/S483D/S484D/S487D)
Method: protein-binding microarray
Form: double-stranded DNA, one strand shown
Sample: in vitro
Tested at: 2200 nM top
Notes: 60-bp whole probe
With: salmon DNA 0.4 mg/ml
Baseline: random background probes
Direction: higher = stronger binding
Shared flanks, not repeated: GCCTAGCAC … GTCTTGATTCGCTTGACGCTGCTG
Target sequence (chain): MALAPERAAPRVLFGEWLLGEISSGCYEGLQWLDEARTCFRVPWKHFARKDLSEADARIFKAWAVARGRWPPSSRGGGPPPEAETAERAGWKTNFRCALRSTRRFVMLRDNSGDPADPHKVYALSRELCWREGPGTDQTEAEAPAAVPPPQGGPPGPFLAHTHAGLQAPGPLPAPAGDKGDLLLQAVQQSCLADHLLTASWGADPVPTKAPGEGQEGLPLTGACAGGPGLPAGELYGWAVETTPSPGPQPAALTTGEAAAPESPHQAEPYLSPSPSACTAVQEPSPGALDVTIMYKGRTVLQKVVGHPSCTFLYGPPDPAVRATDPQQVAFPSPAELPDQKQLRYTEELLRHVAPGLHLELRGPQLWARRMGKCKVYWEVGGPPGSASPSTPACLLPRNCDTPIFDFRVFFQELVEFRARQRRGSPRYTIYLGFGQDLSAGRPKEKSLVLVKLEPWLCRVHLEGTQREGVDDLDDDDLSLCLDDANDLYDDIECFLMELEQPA
Oligonucleotide | fitted relative affinity [z-score]
GTAGGTTTCGGGACTGGGTTAGTGCTA | 3.03
ACCACTCTTCCTTTACTTTCGTGCTAG | 4.15
GACTGTTTCGGACTGGGGACGTGCTAG | 2.5
CATCTCGGGCCGCCGGGCCGGTGCTAG | -0.499
TCAGAGTTCTGTTGCAAACTGTGCTAG | 0.0717
TTAGGTATCGACTTTCGATTAGTGCTA | 4.51
CATTGCCTGTTTTTCCCCTGGTGCTAG | 1.58
TTAGATATCGGGACTGGATTGGTGCTA | -0.253

Series 3
Target: Replicase polyprotein 1ab, main protease (rep, Severe acute respiratory syndrome coronavirus 2, UniProt P0DTD1)
Effect on: enzyme activity
Action: inhibitor
SMILES | IC50 [µM]
O=C(c1cccs1)c1no[n+]([O-])c1C(=O)c1cccs1 | 10.7
O=C(NC(=S)N1CCCc2ccccc21)c1ccccc1 | > 20
Cc1cc(-c2ccc(/C=C3/SC(Nc4ccc(Cl)c(C(=O)O)c4)=NC3=O)o2)c([N+](=O)[O-])cc1C | > 20

Series 4
Target: Histone acetyltransferase KAT6A, both winged helices, GST fusion (KAT6A, Homo sapiens, UniProt Q92794, residues 1-181)
Method: protein binding microarray
Form: double-stranded DNA, one strand shown
Sample: in vitro
Tested at: not given
Notes: 8-mer, flanks averaged, mean of 2 arrays, mostly near background
Baseline: not given
Direction: higher = stronger binding
Residues (chain): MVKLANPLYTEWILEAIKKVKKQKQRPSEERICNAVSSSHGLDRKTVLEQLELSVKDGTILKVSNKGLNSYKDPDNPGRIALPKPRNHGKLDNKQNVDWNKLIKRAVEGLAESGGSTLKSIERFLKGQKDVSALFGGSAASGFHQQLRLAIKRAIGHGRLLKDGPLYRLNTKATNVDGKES
Oligonucleotide | E-score
GGAGTGTA | 0.105
AGGATGGG | -0.249
CGATACCC | 0.129
AATTTTGA | -0.0736
GCAGGTTA | -0.0897
ACGGAAAT | 0.206
ATTCCCGG | 0.195
ACGACATG | -0.137

Series 5
Cell line: HEK-293T
Effect on: pseudovirus infection
Method: FDA-approved drug library screen
Organism: VSV pseudotyped with SARS-CoV-2 spike
Tested at: 10 µM
Time: 16 h
Baseline: vehicle-treated
SMILES | GFP-positive cells
CC[C@H]1OC(=O)[C@H](C)[C@@H](O[C@H]2C[C@@](C)(OC)[C@@H](O)[C@H](C)O2)[C@H](C)[C@@H](O[C@@H]2O[C@H](C)C[C@H](N(C)C)[C@H]2O)[C@](C)(O)C[C@@H](C)[C@@H]2N[C@@H](COCCOC)O[C@H]([C@H]2C)[C@]1(C)O | 91.9%
C[N+](C)(C)CCCCCCCCCC[N+](C)(C)C | 100%
CC(=O)N1CCN(c2ccc(OCC3COC(Cn4ccnc4)(c4ccc(Cl)cc4Cl)O3)cc2)CC1 (stereo not shown) | 67.5%

Series 6
Target: Replicase polyprotein 1ab, polymerase (rep, Severe acute respiratory syndrome coronavirus 2, UniProt P0DTD1)
Effect on: enzyme activity
Action: inhibitor
Tested at: 20 µM
Structure (SMILES) | inhibition
CCC(=O)O[C@@H]1CC(=O)O[C@H](C)C/C=C/C=C/[C@H](O)[C@H](C)C[C@H](CC=O)[C@H](O[C@@H]2O[C@H](C)[C@@H](O[C@H]3C[C@@](C)(O)[C@@H](OC(=O)CC)[C@H](C)O3)[C@H](N(C)C)[C@H]2O)[C@H]1OC | 0.03%
Oc1nc(-c2ccc(C(F)(F)F)cc2)nc2c1CSCC2 | -0.63%
O=C(OCCN1CCCCC1)c1c[nH]c2ccccc12 | 0.64%
O=C1CCC(N2C(=O)c3ccccc3C2=O)C(=O)N1 (stereo not shown) | -1.36%
N=C(N)NN=C1C=CC(=NNC(N)=S)C=C1 | 3.54%
Nc1nc(NC2CC2)c2ncn([C@H]3C=C[C@@H](CO)C3)c2n1 | 26.4%
CC(C)c1cc(C(=O)N2Cc3ccc(CN4CCN(C)CC4)cc3C2)c(O)cc1O | 0.78%
CC(C)c1c(CN(C)C(C)Cc2ccccc2)n(C)n(-c2ccccc2)c1=O (stereo not shown) | -1.62%
CC(=O)O[C@H]1C[C@H](O[C@H]2[C@@H](O)C[C@H](O[C@H]3[C@@H](O)C[C@H](O[C@H]4CC[C@@]5(C)[C@H](CC[C@@H]6[C@@H]5C[C@@H](O)[C@]5(C)[C@@H](C7=CC(=O)OC7)CC[C@]65O)C4)O[C@@H]3C)O[C@@H]2C)O[C@H](C)[C@H]1O[C@@H]1O[C@H](CO)[C@@H](O)[C@H](O)[C@H]1O | 18.4%
C=CCN1CC[C@]23CCCC[C@H]2[C@H]1Cc1ccc(O)cc13 | -1.98%
CN/C(=N\c1ccc(C2=NNC(=O)CC2C)cc1)NC#N (stereo not shown) | -1.89%
CCC(CC)CC1(C(=O)Nc2ccccc2SC(=O)C(C)C)CCCCC1 | 4.76%
O=C(Nc1ccccc1)N1CCN(c2nc(-c3ccccc3)ns2)CC1 | -3.03%
Nc1c2ccccc2nc2ccccc12 | 4.6%
CCC1(CC)C(=O)C=CNC1=O | 1.31%
CCN(CC)CCNC(C(=O)OCCC(C)C)c1ccccc1 (stereo not shown) | -2.84%
CCC(=O)NCC[C@@H]1CCc2ccc3c(c21)CCO3 | -2.52%
C=C1/C(=C\C=C2/CCC[C@]3(C)[C@@H]([C@H](C)/C=C/[C@H](C)C(C)C)CC[C@@H]23)C[C@@H](O)C[C@@H]1O | -2.38%
Cc1ncc(CO)c(CO)c1O | -2.71%
CCCCc1nn(-c2ccccc2C(F)(F)F)c(=O)n1Cc1ccc(-c2ccccc2S(=O)(=O)NC(=O)c2sccc2C)cc1 | 3.91%
Cc1cc2cc3c(C)cc(=O)oc3c(C)c2o1 | 3.14%
N#Cc1c(N)nc(SCc2ncc[nH]2)c(C#N)c1-c1ccc(O)cc1 | -2.41%
NC(=O)c1cc[n+](CC2=C(C(=O)[O-])N3C(=O)[C@@H](NC(=O)Cc4cccs4)[C@H]3SC2)cc1 | -1.3%
CCOc1ccn(-c2ccc(F)cc2)c(=O)c1C(=O)Nc1ccc(Oc2ccnc(N)c2Cl)c(F)c1 | 0.52%
CC(C)(C)C(=O)OCOC(=O)[C@@H]1N2C(=O)C[C@H]2S(=O)(=O)C1(C)C | 2.33%

A few entries again (series 6):
Structure (SMILES) | inhibition
CN/C(=N\c1ccc(C2=NNC(=O)CC2C)cc1)NC#N (stereo not shown) | -1.89%
N#Cc1c(N)nc(SCc2ncc[nH]2)c(C#N)c1-c1ccc(O)cc1 | -2.41%
CCC(=O)NCC[C@@H]1CCc2ccc3c(c21)CCO3 | -2.52%
